Measurements from different studies.
A part holds a random share of what one study measured. Positions count from the first letter of the parent shown.
Sequence of UniProt P54753 (whole entry, looked up): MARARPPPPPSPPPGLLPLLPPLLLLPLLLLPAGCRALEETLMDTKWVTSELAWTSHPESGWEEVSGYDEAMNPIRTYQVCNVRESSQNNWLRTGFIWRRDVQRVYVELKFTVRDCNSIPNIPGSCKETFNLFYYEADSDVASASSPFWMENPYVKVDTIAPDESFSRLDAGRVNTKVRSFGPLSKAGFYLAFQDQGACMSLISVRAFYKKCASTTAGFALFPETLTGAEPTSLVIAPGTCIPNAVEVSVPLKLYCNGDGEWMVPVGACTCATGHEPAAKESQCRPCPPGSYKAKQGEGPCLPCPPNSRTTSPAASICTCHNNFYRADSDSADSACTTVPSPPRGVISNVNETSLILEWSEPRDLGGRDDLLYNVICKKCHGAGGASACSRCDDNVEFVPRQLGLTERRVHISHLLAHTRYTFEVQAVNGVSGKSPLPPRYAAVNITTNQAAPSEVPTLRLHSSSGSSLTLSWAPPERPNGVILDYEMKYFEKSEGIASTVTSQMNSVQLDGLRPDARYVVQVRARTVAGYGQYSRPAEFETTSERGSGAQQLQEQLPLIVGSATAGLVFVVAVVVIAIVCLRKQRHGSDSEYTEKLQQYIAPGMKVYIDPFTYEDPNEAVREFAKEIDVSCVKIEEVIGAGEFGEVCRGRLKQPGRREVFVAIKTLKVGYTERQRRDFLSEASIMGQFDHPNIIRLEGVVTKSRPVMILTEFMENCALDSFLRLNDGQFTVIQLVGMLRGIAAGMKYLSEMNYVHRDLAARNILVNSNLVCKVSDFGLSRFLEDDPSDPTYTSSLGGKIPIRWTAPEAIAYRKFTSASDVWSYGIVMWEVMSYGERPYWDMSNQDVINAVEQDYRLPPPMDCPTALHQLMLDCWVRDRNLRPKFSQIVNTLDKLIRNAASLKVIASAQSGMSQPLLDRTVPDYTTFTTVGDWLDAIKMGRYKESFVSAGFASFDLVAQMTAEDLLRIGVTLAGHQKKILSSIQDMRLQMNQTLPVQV

Sample 1
Variant: R132C
Target: ABI1, truncated, D143A, DHFR fusion (Arabidopsis thaliana)
Method: DHFR PCA, deep sequencing
Matrix: yeast
Notes: methotrexate growth selection, single substitutions
Relative to: wild-type fitted maximum
Direction: higher = stronger binding
Starting sequence: PYL1, truncated, DHFR fusion (Arabidopsis thaliana); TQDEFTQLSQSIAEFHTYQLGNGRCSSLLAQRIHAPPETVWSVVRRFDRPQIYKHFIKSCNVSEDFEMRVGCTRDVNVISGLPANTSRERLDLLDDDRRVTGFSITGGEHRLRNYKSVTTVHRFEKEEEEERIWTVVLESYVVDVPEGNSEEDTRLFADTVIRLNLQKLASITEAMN; partner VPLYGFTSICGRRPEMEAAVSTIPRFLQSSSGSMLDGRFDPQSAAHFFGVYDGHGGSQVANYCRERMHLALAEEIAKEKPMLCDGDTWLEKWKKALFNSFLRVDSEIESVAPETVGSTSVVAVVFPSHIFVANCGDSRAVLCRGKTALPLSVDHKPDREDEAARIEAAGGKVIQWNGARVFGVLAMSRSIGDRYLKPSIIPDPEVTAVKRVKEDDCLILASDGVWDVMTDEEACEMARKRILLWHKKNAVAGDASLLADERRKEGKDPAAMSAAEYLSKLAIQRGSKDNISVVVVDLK
| together with | relative binding score |
| --- | --- |
| (+)-ABA 2500 µM | 101% |
| (+)-ABA 0 µM | 30% |
| (+)-ABA 0.11 µM | 45.6% |
| (+)-ABA 0.39 µM | 63.2% |
| (+)-ABA 200 µM | 106% |
| (+)-ABA 1.4 µM | 67.8% |

Sample 2
Target: POU, POU domain (Salpingoeca helianthica)
Method: Spec-seq
Molecule type: double-stranded DNA, one strand shown
Matrix: in vitro
Concentration: not given
Notes: whole probe, mean of replicates
Relative to: not given
Direction: lower = stronger binding
Shared flanks, not repeated: GAGTCGTCTCGTCAGCAC … CCGTAGAGCACTCAGGTC
Construct (chain): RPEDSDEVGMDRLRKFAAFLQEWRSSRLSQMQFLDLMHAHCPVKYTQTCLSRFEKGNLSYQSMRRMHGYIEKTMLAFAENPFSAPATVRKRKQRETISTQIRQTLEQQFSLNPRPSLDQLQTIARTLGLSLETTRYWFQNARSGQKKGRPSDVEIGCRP
| Oligonucleotide | relative binding energy |
| --- | --- |
| ATGACGAT | 1.5 ln ratio |
| ACTGTAAT | 0.584 ln ratio |
| ATGGTGAT | 1.21 ln ratio |
| ATGGGTAT | 1.13 ln ratio |
| ATGCTTTA | 0.872 ln ratio |
| ATTGGGAT | 1.32 ln ratio |
| GCTTTAAT | 0.247 ln ratio |
| TGGTTAAT | -0.487 ln ratio |

Sample 3
Target: PABPC1L2, full length, GST fusion (mouse, UniProt A0ABA7IW68)
Method: RNAcompete
Molecule type: RNA
Matrix: in vitro
Concentration: 20 nM
Notes: 7-mer, probes averaged, single round
Relative to: mean of 7-mers
Direction: higher = stronger binding
Construct (chain): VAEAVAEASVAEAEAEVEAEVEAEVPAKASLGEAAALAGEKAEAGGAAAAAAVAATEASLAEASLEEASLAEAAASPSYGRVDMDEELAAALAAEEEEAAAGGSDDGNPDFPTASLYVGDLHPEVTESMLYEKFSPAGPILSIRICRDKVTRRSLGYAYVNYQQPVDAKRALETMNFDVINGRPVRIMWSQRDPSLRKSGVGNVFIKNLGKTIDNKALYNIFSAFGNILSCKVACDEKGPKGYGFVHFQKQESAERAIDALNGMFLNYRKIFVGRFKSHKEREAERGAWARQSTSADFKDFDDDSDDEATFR
| Oligonucleotide | 7-mer Z-score |
| --- | --- |
| GAAUUAG | -0.148 |
| AUAUGCU | -0.144 |
| AUGACCA | 0.186 |
| GGAUAGA | 0.109 |
| AGCGCCC | -0.219 |
| GACGCCA | -0.177 |
| UGUUGUC | -0.454 |
| UAGAAUU | -0.124 |

Other studies, line by line
| SMILES | target | read-out | mode | concentration | relative to | quantity | value |
| --- | --- | --- | --- | --- | --- | --- | --- |
| COc1cc2nccc(Oc3ccc(NC(=S)NC(=O)c4ccccc4C)cc3)c2cc1OC | Ephrin type-B receptor 3 (EPHB3, Homo sapiens, UniProt P54753) | enzyme activity | inhibitor | 0.5 µM | control | remaining activity | 95.7% |

Repeated from above (sample 1):
| together with | relative binding score |
| --- | --- |
| (+)-ABA 0.11 µM | 45.6% |
| (+)-ABA 0.39 µM | 63.2% |
| (+)-ABA 0 µM | 30% |
